Measured values gathered from unrelated publications.
Every numbered part comes from another study and shows a few of its results, in no order.

Study 1
Target: Histone acetyltransferase KAT6A, winged helix 2, GST fusion (KAT6A, Homo sapiens, UniProt Q92794, residues 85-181)
Method: protein binding microarray
Form: double-stranded DNA, one strand shown
Matrix: in vitro
Concentration: not given
Setting: 8-mer, flanks averaged, mean of 2 arrays, mostly near background
Reference: not given
Reading: higher = stronger binding
Endpoint: E-score
Target sequence (chain): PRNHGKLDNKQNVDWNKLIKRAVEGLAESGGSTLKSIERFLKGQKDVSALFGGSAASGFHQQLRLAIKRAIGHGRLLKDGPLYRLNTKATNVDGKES
CTAAGGTC: -0.228
ATGAGAGC: 0.0618
ACTCCAGC: 0.0253
ACCGACGC: 0.0833
CCACATTC: -0.201
CAGGACCG: 0.015

Study 2
Target: RNA binding protein fox-1 homolog 2, RRM domain, GST-SBP tag (RBFOX2, Homo sapiens, UniProt O43251-10, residues 100-194)
Method: RNA Bind-n-Seq
Form: RNA
Matrix: in vitro
Concentration: 365 nM
Setting: natural RNA segment, single round, ends assumed
Reference: no-protein control
Reading: higher = stronger binding
Endpoint: RBNS enrichment (R)
All sequences stand within: GGGAGUUCUACAGUCCGACGAUC … UGGAAUUCUCGGGUGCCAA
Construct (chain): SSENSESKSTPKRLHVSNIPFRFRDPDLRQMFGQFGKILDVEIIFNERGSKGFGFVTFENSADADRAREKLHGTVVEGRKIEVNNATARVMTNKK
UUUAUGUCUGCUCUGAGCCUUAAAACACAGGUUGAAGAAGAAAAGAAAGGAAAAAAAAGUGAAAGUUGGUAUUUAUUUCUGUGCUUUAAUUGUCUCUGAAAAUAAUGACA: 0.636
GCAAAAAGUUAAGCCUGCUAAGUAUUCAGAUCCCUGUCAUUUACUUCUCAGCAGUCUCAUUCAAGCUAAGGCUUGCAUACUCAAUCUGUGCCGUAGUCUACACAUUUUUA: 0.344
UUUUCUGAACCAGUUCUUUUUCUUGGGGUAGAGCGUGAAAUCCAGACCUGUUUUUGAAAGGACAGCACAGGAGGAGAAAAGUGACUGGGACGAUGCUUCCUCUCAUCCAA: 0.703
AUUUUGAAAAGGAUAACAAGGCUGGGCACAGUGACUCACACCUGUAAUCCUAGCACUUUGAGAGGCUAAGAAGGGAGGAUCACUUGAACCCAGGAGUUCAAGACCAGCCU: 0.303
UCCCUCCAUCUGGUCCCUGCCCCUCAGCCAGCGGAGGAGCCCGCUGGGCCCUUCCCUGCCCGUCCCCGCUCCUCCCUGGCCCCCGCACAGGUAAGUGAGGGUGAGGGGGG: 0.178

Mixed results
PhoQ, residues 284 288 289 292 302 303 SASVAL
fold induction (PhoP, residues 12 14 15 18 19 NQGLL (Escherichia coli, UniProt P23836); Sort-seq, refers to: YFP reporter; E. coli; PhoQ-PhoP variant library, with: 10 µM Mg2+; reference: high Mg2+ state, higher = stronger signaling): 3.71

YWHAE (Homo sapiens, UniProt P62258)
cross-linked residues (FOXC1 (Homo sapiens, UniProt Q12948); cross-linking MS; cell fractions; with: DSSO): K125 to T88

Repeated from above (study 1):
CCACATTC: -0.201
